Assay results from different studies.
Protocols differ between the studies behind these lines. ± gives the spread as reported.

CCC[C@H]1CC[C@H](c2ccc(-c3ccc(F)cc3)cc2)CC1
mean serum concentration (human mother-newborn pairs, female fetuses, cord serum): 0.52 ng/mL

C=C(C)[C@@H]1CCC(C)=C[C@H]1c1c(O)cc(CCC)cc1O
plasma concentration (LC-MS/MS; Scn1a+/− mice, both sexes, plasma; intraperitoneal, 10 mg/kg, after hyperthermia protocol): 562 ± 70 ng/mL

C[C@@H](NC(=O)N1C(=O)[C@H](Cc2ccnc(N)c2)[C@H]1C(=O)O)C1CCCCC1
incidence of elevated creatine phosphokinase (healthy adult Chinese volunteers; continuous intravenous infusion, 1.0 mg/kg/h, 5-day infusion, CTCAE 5.0 grading): 12.5%

COc1cc(-c2[o+]c3cc(O)cc(O)c3cc2O[C@@H]2O[C@H](CO)[C@@H](O)[C@H](O)[C@H]2O)cc(OC)c1O
hue angle (CIELAB from visible spectra; aqueous buffer; 50 µM, pH 7, ±BSA 600 µM or lysozyme 1000 µM): 327.5 ± 0.39 degrees

O=C(Nc1ccccc1)C1CCN(C(=O)Oc2cccnc2)CC1
subjects with pain in extremity (adverse event reporting; healthy women; oral, 20 mg, 7 days): 7.1%

COc1cc2nccc(Oc3ccc(NC(=O)c4cc5c(n(-c6ccccc6)c4=O)CCCC5=O)nc3)c2cc1OC
TEAEs leading to death (patients with relapsed/refractory AML; oral, 10 mg once daily): 0%

Oc1c(Cl)cc2c(c1Cl)Oc1cc(Cl)c(Cl)cc1O2
dose fraction in skim milk (whole cow milk; 100 nM nominal): 43.3%

CCc1ccc(CC/C=C/c2ccc3c(c2)C(=O)CC3)cc1
MCHC (Sprague-Dawley rat, female; oral, 30 mg/kg/day, 14 days): 329 g/L

CCC[C@@](N)(CO)CCc1ccc(OCCCCCC(C)C)cc1
AUC(0-72 h) (dog, male hounds, plasma; oral capsule, 2.5 mg/kg, geometric mean): 3.14 µM·h

COc1ncccc1-c1cnn2ccc(N3CCN(C(=O)OC(C)C)CC3)nc12
drug concentration (mouse, SNL model, plasma; oral, 10 mg/kg, 120 min): 3.3 µM

COc1ccc([C@@H](O)c2cc(-c3ncnc4cc(N5CCOCC5)ccc34)c(F)cc2Cl)nn1
gastrointestinal disorders incidence (patients, advanced solid tumours; oral, 400 mg twice daily, treatment-emergent, with: avelumab): 4%

COc1cc2c(Oc3ccc4[nH]c(C)cc4c3F)ccnc2cc1OCC1(N)CC1
Fever incidence (paediatric refractory sarcoma patients; 12 mg): 9.1%

CO[C@H]1C[C@@H]2CC[C@@H](C)[C@@](O)(O2)C(=O)C(=O)N2CCCC[C@H]2C(=O)O[C@H]([C@H](C)C[C@@H]2CC[C@@H](OC(=O)NCCOCCOCCOCCOCCOCCOCCOCCOCCC(=O)N3CCc4cc(Cn5nc(-c6ccc7oc(N)nc7c6)c6c(N)ncnc65)ccc4C3)[C@H](OC)C2)C[C@@H](O)[C@H](C)/C=C(\C)[C@@H](O)[C@@H](OC)C(=O)[C@H](C)C[C@H](C)/C=C/C=C/C=C/1C
deaths due to TEAEs (phase 1 dose escalation; advanced solid tumour patients; intravenous, 16 mg weekly, grade ≥3): 0%

Clc1cc2c(cc1Cl)Oc1cc(Cl)c(Cl)cc1O2
mRNA level (RNA-Seq, item: Cyp2c24; female Sprague-Dawley rat, liver; dose not given; baseline: vehicle): 3.3 fold

CN1CCN(S(=O)(=O)c2cc([N+](=O)[O-])ccc2N(CCOS(C)(=O)=O)CCOS(C)(=O)=O)CC1
apparent volume Vz/F (naive NSG mice, plasma; intraperitoneal, 25 mg/kg): 3.8 (mg/kg)/(µM)

CCN1CCN(Cc2ccc(Nc3ncc(F)c(-c4cc(F)c5nc6n(c5c4)[C@H](C)CCC6)n3)nc2)CC1
weight loss incidence (Phase Ia dose escalation; patients with advanced solid tumours; dose not given, monotherapy, grade ≥3): 0%

CC(=O)NCC(=O)NCC(=O)N[C@H](C(=O)N[C@@H](Cc1ccc(O)cc1)C(=O)N[C@@H](CO)C(=O)N[C@H]1CSSC[C@@H](C(=O)N[C@@H](CCCNC(=N)N)C(=O)N2CCC[C@H]2C(=O)N[C@@H](CCC(N)=O)C(=O)N[C@@H](CCCNC(=N)N)C(=O)NCC(=O)NCCC(=O)N[C@@H](CCCCNC(=O)CN(CC(=O)NCCCC[C@H](NC(=O)CCNC(=O)CNC(=O)[C@H](CCCNC(=N)N)NC(=O)[C@H](CCC(N)=O)NC(=O)[C@@H]2CCCN2C(=O)[C@H](CCCNC(=N)N)NC(=O)[C@@H]2CSSC[C@H](NC(=O)[C@H](CO)NC(=O)[C@H](Cc3ccc(O)cc3)NC(=O)[C@@H](NC(=O)CNC(=O)CNC(C)=O)[C@@H](C)O)C(=O)N[C@@H](Cc3c[nH]cn3)C(=O)N[C@@H](Cc3ccccc3)C(=O)NCC(=O)N[C@@H](C)C(=O)N[C@@H](CC(C)C)C(=O)N[C@@H]([C@@H](C)O)C(=O)N[C@@H](Cc3c[nH]c4ccccc34)C(=O)N[C@@H](C(C)C)C(=O)N2)C(N)=O)C(=O)CCN)C(N)=O)NC(=O)[C@H](C(C)C)NC(=O)[C@H](Cc2c[nH]c3ccccc23)NC(=O)[C@H]([C@@H](C)O)NC(=O)[C@H](CC(C)C)NC(=O)[C@H](C)NC(=O)CNC(=O)[C@H](Cc2ccccc2)NC(=O)[C@H](Cc2c[nH]cn2)NC1=O)[C@@H](C)O
serum concentration (MSD immunoassay; BALB/c mice, healthy female, serum; subcutaneous, 0.08 mg/kg, 48 h, LLOQ 2.0 ng/mL): not detected

CC(=O)c1c(C)c2cnc(Nc3ccc(C4CCN(CCS(C)(=O)=O)CC4)cn3)nc2n(C2CCCC2)c1=O
patients with hypertriglyceridaemia (HR+/HER2- advanced breast cancer patients; oral, 100 mg bid, all grades, monotherapy arm): 20%

C[C@]1(CO)Cc2ncn(-c3ccc(C#N)c(Cl)c3)c2C(=O)O1
subjects with drug-related TEAE (healthy Japanese subjects; dose not given, single dose, all doses): 11.1%

C[C@]1(O)C[C@@](N)(c2ccc(-c3nc4n(c3-c3ccccc3)COc3ccncc3-4)cc2)C1
patients with Hyperphosphatemia TEAE (human, advanced or metastatic solid tumours; 24 mg intermittent, phase I dose escalation): 0%

O=C(O)C(F)(F)C(F)(F)C(F)(F)C(F)(F)C(F)(F)C(F)(F)C(F)(F)F
AUC (two-compartment model; human, plasma; oral, 50 mg weekly): 4840 µg·h/mL

CN1CC[C@@H](c2c(O)cc(O)c3c(=O)cc(-c4ccc(C(F)(F)F)cc4Cl)oc23)[C@@H]1CO
patients with adverse event (item: Hypertension; AML; oral, 100 mg, intermittent dosing): 0%

CC(C)CC(=O)OC[C@H]1O[C@@](C#N)(c2ccc3c(N)ncnn23)[C@H](O)[C@@H]1O
fraction bound (human plasma; 0.9 µM): 0.807

CCN1[C@@H](C(=O)NC23CCC(C(=O)O)(CC2)CC3)[C@H](c2cccc(Cl)c2F)[C@]2(C(=O)Nc3cc(Cl)ccc32)C12CCCCC2
grade ≥3 febrile neutropenia incidence (patients with advanced solid tumours; oral, 200 mg): 50%

C#C[C@]1(CO)O[C@@H](n2cnc3c(N)nc(F)nc32)C[C@@H]1O
Cmax at NOAEL (rat, plasma; oral, 50 mg/kg/day, 29 days): 18.9 µM

O=C(Nc1ccc2c(c1)B(O)OC2)c1cccc(OCc2c(Cl)cccc2Cl)c1
membrane retention (PAMPA; 200 µM, 5 h, pH 7.4): 10.3%

Some of these lines once more:
O=C(Nc1ccccc1)C1CCN(C(=O)Oc2cccnc2)CC1
subjects with pain in extremity (adverse event reporting; healthy women; oral, 20 mg, 7 days): 7.1%

COc1cc2nccc(Oc3ccc(NC(=O)c4cc5c(n(-c6ccccc6)c4=O)CCCC5=O)nc3)c2cc1OC
TEAEs leading to death (patients with relapsed/refractory AML; oral, 10 mg once daily): 0%
